# Assay results pooled from the literature.
# Protocols differ between the studies behind these lines. ± marks the error that the study gave.
# Target: Cytochrome P450 2D6 (CYP2D6, Homo sapiens, UniProt P10635)
Compound,assay,test system,conditions,measurement,result
C[C@@H](c1ccc2nccn2c1)n1nnc2nc(O)c(-c3cnn(C)c3)nc21,"enzyme activity, inhibitor","human, liver microsomes",,IC50,> 50 µM
CCN(CC)CCOc1ccc(-c2nnn(Cc3ccc(OC)cc3)c2N)cc1,CYP phenotyping,,concentration not given,inhibition,1.1%
CN[C@@H]1[C@H](O)[C@H](NC)[C@H]2O[C@]3(O)[C@H](O[C@@H]2[C@H]1O)O[C@H](C)C[C@H]3NC(=O)Cc1cc(Cl)ccn1,,,10 µM,inhibition,-1%
N#Cc1c(Cl)ccc2c1C1(CCN(C(=O)c3cnc4[nH]ncc4c3)CC1)C(=O)N2CC(=O)NCC(F)(F)F,"enzyme activity, inhibitor",,,IC50,18 µM
Cc1cc(-c2ccc3ccccc3c2)nnc1NCCN1CCN(C)CC1,substrate,recombinant enzyme,100 nM,half-life,> 1 h
O=C(CN1C(=O)C2(CCN(C(=O)c3ccc4[nH]ncc4c3)CC2)c2ccccc21)NCC(F)(F)F,"enzyme activity, inhibitor",,,IC50,10 µM
C[C@H](NCc1ccc(-c2ccc(C(F)(F)F)cc2)cc1)C(N)=O,P450-Glo luminescence,potassium phosphate buffer,"10 µM, pH 7.4, isoform 2D6",inhibition,89.3%
Cc1cccc2c1C1(CCN(C(=O)c3ccc4[nH]ncc4c3)CC1)C(=O)N2CC(=O)NCC(F)(F)F,"enzyme activity, inhibitor",,,IC50,2.5 µM
C[C@@H](c1ccc2nccn2c1)n1nnc2ncc(-c3cn[nH]c3)nc21,,human liver microsomes,"10 and 50 µM, 30 min preincubation, with: ± NADPH",time-dependent inhibition,< 20%
CC(=O)c1cccc(-c2nc(Nc3ccccc3)nc(N3CCOCC3)n2)c1,,,10 µM,inhibition,12%

# A few entries again:
Compound,assay,test system,conditions,measurement,result
Cc1cccc2c1C1(CCN(C(=O)c3ccc4[nH]ncc4c3)CC1)C(=O)N2CC(=O)NCC(F)(F)F,"enzyme activity, inhibitor",,,IC50,2.5 µM
